Assay results collected from several papers.
Every numbered part comes from another study and shows a few of its results, in no order. Substitutions count along the parent as printed.

Sample 1 — technique: competition protein-binding microarray; form: double-stranded DNA, one strand shown; sample: in vitro; tested at: 2 µM; together with: Cbf1 competitor, 0.05 µM; reading: higher = stronger binding; shared flanks, not repeated: … GTCTTGATTCGCTTGACGCTGCTG
Target: Phosphate system positive regulatory protein PHO4, full length, GST-tagged (PHO4, Saccharomyces cerevisiae, UniProt P07270, residues 1-312)
Setting: whole 60-bp probe, lowest competitor level
Construct (chain): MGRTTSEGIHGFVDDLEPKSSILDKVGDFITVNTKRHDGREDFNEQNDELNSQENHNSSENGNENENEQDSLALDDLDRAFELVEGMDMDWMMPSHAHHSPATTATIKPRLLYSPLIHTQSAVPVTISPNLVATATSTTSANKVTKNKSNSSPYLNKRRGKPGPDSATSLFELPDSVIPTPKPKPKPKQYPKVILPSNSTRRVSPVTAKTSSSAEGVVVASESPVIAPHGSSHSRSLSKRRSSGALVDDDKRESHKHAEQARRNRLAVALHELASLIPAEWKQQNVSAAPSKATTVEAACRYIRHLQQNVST
Strand | fluorescence intensity [a.u.]
TCGCTCTTCGCTCTGAATGTGACGGCAAATTTCGAC | 3810
AAATTACTAAGTTTTCACGTGACTTACCCCGTATGA | 11800
CTTCTGTAAATTTTTCACGTGGACTGACGCGCCCCG | 12700
CTTTCCCGATCTTGGACGGTGGGTGTAGCACATTTG | 4180
CGAAAACGGATGCCATGTTCCAGCACCAACTGCTAC | 5090
CTAACGAAGGTTTTTCACGTGTCATACAAGCCAAGT | 12700
CGGGGTTAAGTTTGCCATGTGGGTGGCTTGCAGCAG | 11100
CATACCCAACCTTTTCACGTGCTTTAAGATATTTGT | 18300

Sample 2 — technique: RNA Bind-n-Seq; form: RNA; sample: in vitro; tested at: not given; baseline: input RNA pool; reading: higher = stronger binding
Target: RING finger protein unkempt homolog, zinc fingers 1-6, GST-SBP tag (UNK, Homo sapiens, UniProt Q9C0B0, residues 30-357)
Setting: RNA with constant flanks, human and mouse sites, ends assumed
Shared flanks, not repeated: GGGAGUUCUACAGUCCGACGAUC … CAACAGAGGAUUGAGCAUCA
Residues (chain): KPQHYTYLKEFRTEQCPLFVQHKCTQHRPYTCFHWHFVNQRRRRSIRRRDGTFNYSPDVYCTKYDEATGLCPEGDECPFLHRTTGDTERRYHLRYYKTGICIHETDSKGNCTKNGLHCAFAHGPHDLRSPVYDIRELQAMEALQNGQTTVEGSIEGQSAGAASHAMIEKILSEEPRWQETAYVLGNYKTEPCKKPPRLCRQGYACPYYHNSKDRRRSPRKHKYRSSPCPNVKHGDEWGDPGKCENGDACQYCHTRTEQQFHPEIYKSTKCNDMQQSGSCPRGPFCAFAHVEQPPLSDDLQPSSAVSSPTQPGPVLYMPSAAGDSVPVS
Strand | bound/input enrichment [ratio]
GCGCGCCGCCAACCCGGUGCUGACUGGGUUACUUUUUUAAACACUAGGAAUGGUAAUUUCUACUCUUCUGGACUUCAAACUAAGAAGUUAAAGAGACUUCUCUGUAAAUAAACAAAUCUC | 0.732
UUUAAGUCUGGUGGCAUCCCAGCGCUGGUGAAAAUGCUUGGGUCACCAGUGGAUUCUGUACUGUUCUACGCCAUCACGACACUGCAUAAUCUCCUGCUCCAUCAGGAAGGAGCUAAAAUG | 0.0529
UUCAAAGAAAAGGGCAGCUGUGUCAUUUCAUAAGUAACUCUGGGGGAGGGAAAUUCUGUUCUUUUGUUUAAUUUUCCCCCAAAUGAAGCCAAAGUGUGUGUUGAAGAACUGAGAAAAAAU | 0.133
GAUGGCCUUACUAAGUUUUUUACACCAUCACCUGAUGGUCGCAGAUCACGAGGUGAAAUUAUAGACUUUUCAAAGCACUAUCGUCCAAGGAAAAAGGUCUCUCAGAAACAGUCAUGCACU | 0.107
UUUGCCACAGGUGGUUCUGAUGGCUUUGUAAAUAUUUGGGAUCCAUUUAACAAAAAGCGACUGUGCCAAUUCCAUCGGUACCCCACGAGCAUCGCAUCACUUGCCUUCAGUAAUGAUGGG | 0.169
UCUUCAGAUAUGAAAAUGACUCAGCUAUUCACCAAAGUUGAAUCAGAAGAUACAAGUAGCCUCUUUGACAAACUUAAGAAGGAACCUGAUGCUUUAACUUUGCUGGCCCCAGCCGCUGGA | 0.228
GCAGAGCCAAGAGGAGAAACAUGGAGAGGCUGACACUUGCUUGUGGUGGGAUAGCUCUGAAUUCCUUUGAUGACCUGAAUCCUGACUGUUUGGGACAUGCAGAGCUUGUCUAUGAGUAUA | 0.349
CUUCCAUUUAUUGUUUCUCAUAGAUUGUCUAAUACCUUGAGCUUAGAUAUUCAUGAAAAUCAUAGUUUUGCACUUCUAGGGAAGAAGAAAUCAAGCAAUUUGACAUUACCACCCAAAUAU | 0.698

Sample 3 — technique: protein-binding microarray; form: double-stranded DNA, one strand shown; sample: in vitro; tested at: not given; reading: higher = stronger binding
Target: Hepatocyte nuclear factor 3-beta, forkhead domain (FOXA2, Homo sapiens, UniProt Q9Y261, residues 142-269)
Setting: k-mer, scored over probes, only values ≥0.25
Residues (chain): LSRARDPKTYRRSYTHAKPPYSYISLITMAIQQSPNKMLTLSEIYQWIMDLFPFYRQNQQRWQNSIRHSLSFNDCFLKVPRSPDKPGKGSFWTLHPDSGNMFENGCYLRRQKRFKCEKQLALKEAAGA
Strand | E-score
CATATAAA | 0.324
CAACTTTA | 0.269
ATCGTAAT | 0.287
ACGTAAAG | 0.299
CAACAAGG | 0.255
CAGTATAA | 0.336
AAGACAAC | 0.278
AAGTATAC | 0.341

Other studies, line by line
Starting sequence: PafA, mature enzyme, eGFP fusion (Elizabethkingia meningoseptica, UniProt Q9KJX5); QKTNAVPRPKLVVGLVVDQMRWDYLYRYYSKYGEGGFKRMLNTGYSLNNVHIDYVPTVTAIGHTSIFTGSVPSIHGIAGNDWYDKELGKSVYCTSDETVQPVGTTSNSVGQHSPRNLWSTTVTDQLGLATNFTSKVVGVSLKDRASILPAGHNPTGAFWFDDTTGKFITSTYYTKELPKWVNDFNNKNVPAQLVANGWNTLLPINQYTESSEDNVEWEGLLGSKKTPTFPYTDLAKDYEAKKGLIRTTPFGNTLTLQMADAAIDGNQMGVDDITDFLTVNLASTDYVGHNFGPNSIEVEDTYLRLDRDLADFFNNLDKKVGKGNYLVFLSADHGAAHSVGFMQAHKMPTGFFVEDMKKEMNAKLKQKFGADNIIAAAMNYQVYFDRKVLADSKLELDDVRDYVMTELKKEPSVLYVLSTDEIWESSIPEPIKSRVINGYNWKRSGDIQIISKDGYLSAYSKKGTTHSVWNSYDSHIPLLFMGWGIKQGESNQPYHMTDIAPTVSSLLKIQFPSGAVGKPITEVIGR
Change | target | test | system | setting | how to read | quantity | result
F132V | vanadate, free oxyanion | microfluidic competitive inhibition | in vitro, cell-free expressed | not given, derived from inhibition constants, unchanged parent 676 nM | lower = stronger binding | oxyanion analog dissociation constant | 2.27 µM
